Assay results gathered from unrelated publications.
Several values in a cell are separate wells, animals, samples, runs or records. Numbers after ± are the reported error.
Cell line: HEK293

`COc1cc2c(O)c3c(c(-c4ccc5c(c4)OCO5)c2cc1OC)C(=O)N(N)C3` gave an IC50 of 9060 ± 893 nM (endosomal acidification; 4 h).
For `NC(=O)c1cccc(-c2c[nH]c3ncnc(N4CCOCC4)c23)c1`, “YAP/TAZ-TEAD reporter activity” read “increased” (reporter gene, 8xGTIIC luciferase; 10 µM, 48 h; reference: DMSO).
For `NCCN(C(=O)c1ccc(Cl)cc1Cl)c1ccc(OCc2ccc(Cl)cc2)cc1`, the selectivity index was 2.83 (MTT; reference: CC50 over IC50).
`Clc1cccc(-c2c[nH]c3nccc(N4CCOCC4)c23)c1`: “phosphorylated MOB1 level” “decreased” (Western blot, refers to: MOB1 phospho-Thr35; 10 µM, 4 h, added: H2O2 50 µM for 2 h; reference: DMSO).
`COc1cc2c(OCCCC#N)c3c(c(-c4ccc5c(c4)OCO5)c2cc1OC)C(=O)OC3` gave an IC50 of 98.7 ± 29.5 nM (endosomal acidification; 4 h).
`CC(=O)NC1CCN(c2ncnc3[nH]cc(-c4cccc(Cl)c4)c23)CC1` — result for “phosphorylated MOB1 level”: “decreased” (Western blot, refers to: MOB1 phospho-Thr35; 10 µM, 4 h, added: H2O2 50 µM for 2 h; reference: DMSO).
For `CCOC(=O)CN1CCN(CCCOc2c3c(c(-c4ccc5c(c4)OCO5)c4cc(OC)c(OC)cc24)C(=O)OC3)CC1`, the IC50 was 172 ± 40.6 nM (endosomal acidification).
`Cc1cc(NCCc2ccccc2)nc(N=C(N)Nc2ccc(Cl)cc2)n1` gave a selectivity index of 106 (MTT; reference: CC50 over IC50).
For `OC1CCN(c2ncnc3[nH]cc(-c4cccc(Cl)c4)c23)CC1`, “phosphorylated MOB1 level” read “decreased” (Western blot, refers to: MOB1 phospho-Thr35; 10 µM, 4 h, added: H2O2 50 µM for 2 h; reference: DMSO).
The IC50 of `COc1cc2c(O)c3c(c(-c4ccc5c(c4)OCO5)c2cc1OC)C(=O)N(/N=C/c1c(F)c(F)c(F)c(F)c1F)C3` is reported as greater than 10000 nM (endosomal acidification; 4 h).
With `CO[C@H]1C[C@@H](C[C@H](C)[C@H]2CC(=O)[C@@H](C)/C=C(\C)[C@H](O)[C@H](OC)C(=O)[C@@H](C)C[C@@H](C)/C=C/C=C/C=C(\C)[C@H](OC)C[C@H]3CC[C@H](C)[C@](O)(O3)C(=O)C(=O)N3CCCC[C@@H]3C(=O)O2)CC[C@@H]1OCCO` (racemic) the selectivity index was 50.9 (MTT; reference: CC50 over IC50).
`N.N.[Cl][Pt][Cl]` has an IC50 of 17600 ± 2870 nM (cell growth, MTT; 48 h, LED photolysed 1 h).
`COc1c(C)c2c(c(O)c1C/C=C(\C)CCC(=O)O)C(=O)OC2` gave an IC50 of 347 nM (cell proliferation; kidney cancer).
The selectivity index of `Cc1ccc2c(c1C)NC(=O)[C@]21NN=C(c2ccccc2)S1` is reported as 105 (MTT; reference: CC50 over IC50).
`CO/C1=C\C(C)=C\[C@@H](C)[C@@H](O)[C@@H](C)C/C(C)=C/C=C/[C@H](OC)[C@@H]([C@@H](C)[C@@H](O)[C@H](C)[C@@]2(O)C[C@@H](O)[C@H](C)[C@@H](C(C)C)O2)OC1=O` — result for cytosolic pH: “no effect” (BCECF-AM; concentration not given, 4 h; reference: vehicle).
`C/C=C(/C)C(=O)O[C@H]1C(C)=C2[C@H]([C@@H]1OC(=O)CCCCCCC)[C@@](C)(OC(C)=O)C[C@H](OC(=O)CCC)[C@@]1(O)[C@H]2OC(=O)[C@@]1(C)O` gave a phospho-eIF2α level of 0.719 and 0.604 and 0.55 (western blot; 3 µM, 6 h, unit not given; reference: total eIF2α).
For `Fc1cccc(-c2c[nH]c3ncnc(N4CCOCC4)c23)c1`, “YAP/TAZ-TEAD reporter activity” read “increased” (reporter gene, 8xGTIIC luciferase; 10 µM, 48 h; reference: DMSO).

A few entries again:
`CO/C1=C\C(C)=C\[C@@H](C)[C@@H](O)[C@@H](C)C/C(C)=C/C=C/[C@H](OC)[C@@H]([C@@H](C)[C@@H](O)[C@H](C)[C@@]2(O)C[C@@H](O)[C@H](C)[C@@H](C(C)C)O2)OC1=O` — result for cytosolic pH: “no effect” (BCECF-AM; concentration not given, 4 h; reference: vehicle).
